Assay results gathered from unrelated publications.
Numbered parts are unrelated; each lists some results of a single study.

Series 1
Target: TATA-box-binding protein 1 (TBP1, Arabidopsis thaliana, UniProt P28147, residues 1-200, full length assumed)
Technique: protein-binding microarray
Molecule type: double-stranded DNA, one strand shown
Sample: in vitro
Concentration: not given
Setting: k-mer, scored over probes, only values ≥0.25
Direction: higher = stronger binding
Endpoint: E-score
Residues (chain): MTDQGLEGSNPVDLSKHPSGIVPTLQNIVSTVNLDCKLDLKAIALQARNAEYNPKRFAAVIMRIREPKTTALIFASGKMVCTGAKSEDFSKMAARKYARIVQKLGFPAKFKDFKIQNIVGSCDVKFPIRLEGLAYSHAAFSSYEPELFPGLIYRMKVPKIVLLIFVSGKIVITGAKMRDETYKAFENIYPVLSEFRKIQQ
AACTTAT: 0.314
ATCTTTA: 0.284
TATTACA: 0.263
CCAATTA: 0.253
AAATTAT: 0.377
ATTAAAT: 0.432
AACATAT: 0.294
CTATAAA: 0.44
GTATTAA: 0.341
TAATAAA: 0.433
AATATCT: 0.323
TGTTTAA: 0.309
ACTATTA: 0.312
AGATTTA: 0.334
GAGATAA: 0.29
AAATCAT: 0.3

Series 2
Target: Prothrombin, mature alpha-thrombin (F2, Homo sapiens, UniProt P00734)
Technique: aptamer microarray, sandwich
Molecule type: DNA with 2'F-ANA
Sample: in vitro
Concentration: 200 nM
Setting: whole 15-mer aptamer, many near background
Added: Cy3 exosite-II aptamer, 400 nM
Direction: higher = stronger binding
Endpoint: mean fluorescence intensity
Sequence: GGTTGGTGTGGTTGG
2'F-ANA at 1 2 7 8 9 12 13 14 15: 96.6 a.u.
2'F-ANA at 2 5 6 7 8 10 11 13 14: 47.5 a.u.
2'F-ANA at 3 5 6 9 10 11 14 15: 50.3 a.u.
2'F-ANA at 2 4 6 7 8 11 15: 221 a.u.
2'F-ANA at 3 4 6 7 9 10 12 15: 271 a.u.
2'F-ANA at 2 3 4 6 7 8 12 14 15: 340 a.u.
2'F-ANA at 1 4 6 7 11 12 13 14 15: 58.2 a.u.
2'F-ANA at 2 3 6 8 9 10 12 14 15: 221 a.u.
2'F-ANA at 1 3 6 7 8 9 12 14 15: 139 a.u.
2'F-ANA at 2 3 4 5 7 10 13 14: 45.9 a.u.
2'F-ANA at 1 2 3 6 7 9 10 13 14 15: 58.4 a.u.
2'F-ANA at 3 4 5 6 7 12 13: 127 a.u.
2'F-ANA at 1 2 3 4 5 7 8 11 13 15: 72 a.u.
2'F-ANA at 3 4 5 10 11: 56.6 a.u.
2'F-ANA at 3 4 5 6 8 14: 47.6 a.u.
2'F-ANA at 1 4 7 8 9 11 13 14: 52.6 a.u.
2'F-ANA at 1 5 6 7 14: 46.5 a.u.
2'F-ANA at 2 3 4 7 9 13 14: 264 a.u.

Series 3
Target: RNA binding protein fox-1 homolog 2, RRM domain, GST-SBP tag (RBFOX2, Homo sapiens, UniProt O43251-10, residues 100-194)
Technique: RNA Bind-n-Seq
Molecule type: RNA
Sample: in vitro
Concentration: 365 nM
Setting: natural RNA segment, single round, ends assumed
Baseline: no-protein control
Direction: higher = stronger binding
Endpoint: RBNS enrichment (R)
All sequences stand within: GGGAGUUCUACAGUCCGACGAUC … UGGAAUUCUCGGGUGCCAA
Target sequence (chain): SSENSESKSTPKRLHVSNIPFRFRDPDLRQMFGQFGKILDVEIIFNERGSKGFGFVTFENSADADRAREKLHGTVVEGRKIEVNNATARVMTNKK
AAUUACAAGCUGACAGUGUACAAUGUUCCAACAGAAAUAUUAUCAUAACAUGCCUUUUUUGUAUCAAAUGUACUAAGACUUGCCUAUAUAUAGUGCCACUGUGCCUUCUC: 0.274
UAUUUUAAGAAAUAACAGAAAGCCUGGGUGACAUUUGGGAGACAUGUGACAUUUAUAUAUUGAAUUAAUAUCCCUACAUGUAUUGCACAUUGUAAAAAGUUUUAGUUUUG: 0.777
CGUGACUCUGUGGGGCUUCUUUCUCCUUUUCACUUUCCCCUUUAACCCAUGUCUGACUUAGUGCUGCCUGUGUUGGUAAGAGUCAGCAAGUGCCCUUAGGAAGCCACACG: 1.08
CCAUAUGGCAAAGGCCUUUAUUGUGUUAAAUAACUUAGUAUCUCAUAUAUACAUAUAUAUGCACCUAUAUAACGUGUAUAUAUAUAAAUGCAGCCAUUGCUAUUGCAAUU: 0.38
GAGGGGAUUUCUUGGAAAAGGAGAGAGGAAUCCCCUAGAGCAGGGAAAGCAGUGCCUGCCAGCUGUUGUGCACCUUCCUGAGAAAUAAAUAUCCUCUAAAUUUUCAAACC: 0.939
CUCGGCCACACUGCCCCUUGUGGCCUUCUCGGGACAUGUGGUAACUGACUUGCUCUCAGGCCCACCCGCAGCUUUUCCAAAUACCUGCAGCCUUCAGCCCUGCUGCCCUG: 2.3
AGUUAAGUACUGCUUCCAUUCAUUGUUUACGCUGGAAUUUUUCUCCCCAUGGAAUGUAAGUAAAACUUAAGUGUUUGUCAUCAAUAAAUGGUAAUACUAAAUUUUUUUGU: 0.88
AAGAAAUGUCAUUUUUUUCAUCAAAGACACCAGGGCAGAUUUUUAAGUAAAGAAAGACAAUUGGACCCUUAAGAAUUUAUGCAUUUGUAAAGUUGCUGUUGAUCCAAAUA: 0.885
AGGAACUCAGUUAAAAUGCAGUUGAAGAAUGUCAUCUCCCGAAUUGCUGUCACUUUGGCGAGGGAGUGGAUAUAGGGCAUGUCACAAAAGAACAAAAUAACCCGACCUUU: 1.43
ACUCCCCUCUUGAUUUUCUAUCUUGAUUUAUCCUGCAGGCAUGUCCUACCUUUUGACAUUGUGACUUGGCUUUGUUAAAAACUUGCAAAAAAAAUCAUGUUUUAAAUGUU: 4.2
UCUGUAUAAAAGCAGAUCUUUUUAAAAAGAUACUUCUGUAACUUAAGAAACCUGGCAUUUAAAUCAUAUUUUGUCUUUAGGUAAAAGCUUUGGUUUGUGUUCGUGUUUUG: 0.434
CUGCUUUUGGUUUUGCUUCUGAUCUUGUGUUCUAAGGUACUCAGUGAAUCCUGGAUUCUGAGUAAGUUCCAGGGUUCUGGCCUUGAAGCCUUGGACUACACACAUUUCAA: 0.406

Series 4
Target: Ras GTPase-activating protein-binding protein 1, full length (G3BP1, Homo sapiens, UniProt Q13283)
Sequence of UniProt Q13283 (whole entry, looked up): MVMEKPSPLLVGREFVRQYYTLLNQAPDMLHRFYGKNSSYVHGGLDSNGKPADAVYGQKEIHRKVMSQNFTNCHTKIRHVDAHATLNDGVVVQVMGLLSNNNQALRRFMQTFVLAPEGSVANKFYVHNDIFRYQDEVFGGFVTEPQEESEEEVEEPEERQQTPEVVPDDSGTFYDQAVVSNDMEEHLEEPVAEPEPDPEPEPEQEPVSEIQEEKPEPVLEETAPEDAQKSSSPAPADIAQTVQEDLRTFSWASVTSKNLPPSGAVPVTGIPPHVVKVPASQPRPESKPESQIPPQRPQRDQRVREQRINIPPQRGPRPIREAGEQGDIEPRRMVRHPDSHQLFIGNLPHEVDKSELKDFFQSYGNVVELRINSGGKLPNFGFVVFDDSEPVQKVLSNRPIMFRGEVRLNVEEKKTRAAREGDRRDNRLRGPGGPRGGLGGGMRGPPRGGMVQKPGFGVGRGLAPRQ
Technique: RNA Bind-n-Seq
Molecule type: RNA
Sample: in vitro
Concentration: 200 nM
Setting: whole 134-nt RNA, ends assumed
Added: 150 mM KCl
Baseline: input library
Direction: higher = stronger binding
Endpoint: log2 enrichment
All sequences stand within: GGGAGUUCUACAGUCCGACGAUC … UGGAAUUCUCGGGUGUCAAGG
CCUCAAGUCCUGUGCUACACAUCGUAUGUACCGAAUCGGGGUGGGUGGGGUGGAAAGUAUUAUGUUACGCCGUUCGGAUCUGCACUUCCA: 1.17
AAAGGAAGUAAAAACAAAUGGAAAUGCUUCGGAUAGUGGCAGGGGUGGGGGUUGCUAAGGAAAGGGUGGGAUGGGAGUGGGUAAAGAGUU: 0.976
GUCCUGUGCUACACAUCGUAUGUACCGAAUCGGGGAAAAAGGGGUUUGGGGUUUGGGGAAAGUAUUAUGUUACGCCGUUCGGAUCUGCAC: 0.675
UAGCCCUGGUGGCAUGCGGGGAGGAAGAGGUGGCCUCAUGGAUCGUGGUGGUCCCGGUGGAAUGUUCAGAGGUGGCCGUGGUGGAGACAG: 0.249
UCCUCAAGUCCUGUGCUACACAUCGUAUGUACCGAAUCGGAGGAGGGAGGGAAAGUAUUAUGUUACGCCGUUCGGAUCUGCACUUCCAGC: -0.196
CCUGUGCUACACAUCGUAUGUACCGAAUCGGGGCCCCCCGGCCCCCCGGGCCCCCCGGGGAAAGUAUUAUGUUACGCCGUUCGGAUCUGC: -0.432
UGUGAGCUGACUUUUUGGAUCAACUUUACUUUUCCCUUCUUUUUAGGCAAUUGAAGAUGAAGGUGGUAAUCCUGACGAAAUUGAAAUUAC: -0.109
GCAGGAAGUAAAAACAAAUGGAAAUGCUUCGGAUAGUGGCAGGGGUGGGGGUUGCUAAGGAAAGGGUGGGAUGGGAGUGGGUAAAGGGUU: 0.911
CACAGACAACACGCACCCACACAGACACAGAGGGAAGGGGUUGGGAUGGCGACAGGGUGCACAGCAGGGCGGGGUAGGACCCCAGCCCCU: 1.43
AAGUCCUGUGCUACACAUCGUAUGUACCGAAUCGGGUUUUUUUGGGUGGGUUUGGGAAAGUAUUAUGUUACGCCGUUCGGAUCUGCACUU: 0.234
CAAGUCCUGUGCUACACAUCGUAUGUACCGAAUCGGGAAAGGGGAAAGGGAAAGGGAAAGUAUUAUGUUACGCCGUUCGGAUCUGCACUU: 0.56
CCUGUGCUACACAUCGUAUGUACCGAAUCGGCCCCCCCGGCCCCCCCGGCCCCCCCGGGGAAAGUAUUAUGUUACGCCGUUCGGAUCUGC: 0.0726
ACCAUGCAGGUGGGCAUCUUUGGGAAGUGGGGCAAGGGGGGGAUAGGGAGGGGGGUAACACUUAGGGAACAGGUGGUCCCAGGUCGUUUC: 1.3
CUCAAGUCCUGUGCUACACAUCGUAUGUACCGAAUCGGUGGUUUUUGGAAAGGAAAGUAUUAUGUUACGCCGUUCGGAUCUGCACUUCCA: -0.301

Series 5
Target: Sal-like protein 4, full length isoform B (SALL4, Homo sapiens, UniProt Q9UJQ4-2, residues 1-616)
Technique: universal PBM
Molecule type: double-stranded DNA, one strand shown
Sample: in vitro
Concentration: not given
Setting: 8-mer, flanks averaged, mean of replicates
Direction: higher = stronger binding
Endpoint: E-score
ACTTTTGA: 0.185
TGGGTAAA: -0.0678
ATTTTGGC: 0.187
CACGTCAC: 0.0822
TCAGATAA: 0.144
ATACTGGC: -0.0392
GGTCAGCA: -0.111
ACCGAACG: -0.169
GAAGGAGC: -0.206
GGCTCCAC: -0.316
GTAAGTAC: 0.13
CACACAGG: 0.0026
AAACTAGG: 0.00353
AGCACGCT: -0.235
CTACGAAG: -0.151
ACTTTAAG: 0.176
AGGGCAGG: -0.247
AATATCTG: 0.284
CCGACGTA: -0.116
ATGCGCGA: -0.11
ACCTACAA: 0.18
CAAGAACA: 0.107
CGTTGTCA: -0.0775
AACGATTC: 0.161
CCCGATCA: -0.169

A few entries again (series 5):
ACCGAACG: -0.169
AATATCTG: 0.284
CACGTCAC: 0.0822
TGGGTAAA: -0.0678
AGCACGCT: -0.235
AACGATTC: 0.161
CAAGAACA: 0.107
GGCTCCAC: -0.316
AGGGCAGG: -0.247
CACACAGG: 0.0026
ATTTTGGC: 0.187
ACTTTAAG: 0.176
GGTCAGCA: -0.111
